Published values gathered from unrelated publications.
Numbered parts are unrelated; each lists some results of a single study. Changes are numbered by the printed parent chain.

Block 1 — method: RNA Bind-n-Seq; molecule type: RNA; sample: in vitro; tested at: not given; baseline: input RNA pool; direction: higher = stronger binding
Target: RING finger protein unkempt homolog, zinc fingers 1-6, GST-SBP tag (UNK, Homo sapiens, UniProt Q9C0B0, residues 30-357)
Notes: RNA with constant flanks, human and mouse sites, ends assumed
Residues (chain): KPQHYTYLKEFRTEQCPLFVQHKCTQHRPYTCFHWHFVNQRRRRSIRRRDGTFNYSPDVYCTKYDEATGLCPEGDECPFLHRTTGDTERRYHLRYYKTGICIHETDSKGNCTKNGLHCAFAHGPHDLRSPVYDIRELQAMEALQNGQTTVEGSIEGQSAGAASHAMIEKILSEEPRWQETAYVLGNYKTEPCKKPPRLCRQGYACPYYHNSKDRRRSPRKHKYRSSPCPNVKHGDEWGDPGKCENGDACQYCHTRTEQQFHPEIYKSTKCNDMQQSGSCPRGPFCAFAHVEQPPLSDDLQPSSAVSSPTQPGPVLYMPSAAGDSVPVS
`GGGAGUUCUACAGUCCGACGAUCGCUGAUUUUGAGAAGGUUUUCUGCAUUGGACCAGUUUUCAGAGCUGAAGACUCCAAUACCCAUAGACAUCUGACUGAAUUUGUUGGUUUGGAUAUUGAAAUGGCCUUUAAUUAUCAUUACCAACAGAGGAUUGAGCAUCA` gave a bound/input enrichment of 0.608 ratio.
The bound/input enrichment of `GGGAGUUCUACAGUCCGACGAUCCUGGAAGAAACUGAAGCACUGGCCCCGGACCCUUCAGCCCAAGAGGAGCAGGGUAGGACUUCUGAUGGCUUAGGGAAGCCACCUGAACAGUUUCUAGAGAAGGAAGCUGUCAGCUCACUCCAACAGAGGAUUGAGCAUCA` is reported as 0.0868 ratio.
For `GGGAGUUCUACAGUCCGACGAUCGACCUGUUGUAGGCAGCUAUCUUACAGACGCAUGAAUGUAAGAGUAGGAAGGGGUGGGUGUCAGGGAUCACUUGGGAUCUUUGACACUUGAAAAAUUACACCUGGCAGCUGCGUUUAAGCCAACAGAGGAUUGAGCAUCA`, the bound/input enrichment was 0.271 ratio.
For `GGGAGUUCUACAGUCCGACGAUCGCCAGUAAUUGAUUGAUAACAGGAAGCUAUGAGGGACCCUGUGAGUAGCCAGUACAGUUCCUUUCUUUUCUGGAGGAUGCCCAUCCCAGAACUGGAUCUGUCGGAGCUGGAAGGCCUGGGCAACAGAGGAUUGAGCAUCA`, the bound/input enrichment was 0.251 ratio.
`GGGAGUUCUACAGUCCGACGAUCGCUGGCUUCUUUGGACUCCCUAUAUGAUUGAUGAUGUGAAAACCUAAAUUACUUGCAGCAUAGUAUUACUUCUUUGAUGUUCUCAUUAGCAUAAUGUUAUUUUUGAAAAGGAAAGAUACUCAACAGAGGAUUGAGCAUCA` gave a bound/input enrichment of 1.68 ratio.
`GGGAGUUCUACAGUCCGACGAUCGAUAACUGUCGAGAAGUGAUUAUUACACCAAAUUCUGCAUGGGGUGGAGAAGGCAGCCUAGGAUGUGGCAUUGGAUAUGGUUAUUUGCAUCGAAUACCUACACGCCCAUUUGAGGAAGGACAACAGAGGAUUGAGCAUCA` has a bound/input enrichment of 0.393 ratio.
For `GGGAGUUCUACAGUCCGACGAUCGUCUGCAAAAUGGCCCAGACGAGUCUGCUGCAAGGGAAACAGUUUUACUGUCGAGAAUGGGUUUUCCACAAACUUCAGCACUGCCUCCAGGAGAAAUGGAGCUGCUGUUCGGGUCCAGCCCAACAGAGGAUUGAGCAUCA`, the bound/input enrichment was 0.167 ratio.

Block 2 — method: RNA Bind-n-Seq; molecule type: RNA; sample: in vitro; tested at: 365 nM; baseline: no-protein control; direction: higher = stronger binding
Target: RNA binding protein fox-1 homolog 2, RRM domain, GST-SBP tag (RBFOX2, Homo sapiens, UniProt O43251-10, residues 100-194)
Notes: natural RNA segment, single round, ends assumed
Construct (chain): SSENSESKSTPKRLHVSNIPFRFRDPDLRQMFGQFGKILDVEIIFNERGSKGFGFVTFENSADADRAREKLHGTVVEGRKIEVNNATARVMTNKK
`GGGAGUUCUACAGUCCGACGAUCCUCGUGUAAGACAGGAAGAACACUUUCUCUGUAGUUUCUUUCUUUUCAUUUAUAAUUUACAAAAGUAAAGCAUUUAUUAGUGUCUGAUUUAAGAAUGUAAAGUGAUUCUGUGGAAUUCUCGGGUGCCAA` — result for “RBNS enrichment (R)”: 0.598.
`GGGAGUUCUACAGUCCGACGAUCCACCGGCAUUUCCUUCUUCCACCAGCUUUAAUGGAACUUUUUUUGGCACUGCUUUGCAUUGGAGUCAGUUGUAGUCCACAUAGCUGGCUGCAGAGAAAUCAGUCUUACCCUGGAAUUCUCGGGUGCCAA`: “RBNS enrichment (R)” 0.453.
`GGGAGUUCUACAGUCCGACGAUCGCCCACCUUCUUUUUCUUUCCUUCCUACCUGCCUUCUUUGAUGCCAACCCCAACAGACCCGUAGGGGGAGAAAAGGGAGGAAAAAAGUAAUUUUAAGGGGCCAAAGCUUUUGGAAUUCUCGGGUGCCAA` — result for “RBNS enrichment (R)”: 0.325.
`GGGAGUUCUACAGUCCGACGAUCUCUGGUUUUGCCCUGUCAUGUCGUAACGAGGUGGGCCUUUUGAGGCCAUUUUAGUUUGAGUUCGAGCCAACCACCUCUGUUGGUUAGAUGAUGAAUAAAAAGGUUCUGAAUGGAAUUCUCGGGUGCCAA`: “RBNS enrichment (R)” 0.283.
`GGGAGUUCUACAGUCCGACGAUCUAAAAUAAAAAGCCUCCUCUUUCCAUCCCUCAAGUCAACUUUUGUGCUCCAGAAAAUUUUCUAUUCUGUAAGUCUAAGGGUAAAACUUCAAGUAUUAAGAUAAUUUGUACUGGAAUUCUCGGGUGCCAA`: “RBNS enrichment (R)” 0.507.
For `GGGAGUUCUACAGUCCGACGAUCUUCAGGCCUAGACAUACAUGAAACUUAUUUUUGAGGUUUUUGUGCUUUUGGUAUUUUCAUGUGUUACCUGCAUGUGAAUUUCUCAUGACUUUGUUUUUCUAGUUUCUUUUUGGAAUUCUCGGGUGCCAA`, “RBNS enrichment (R)” read 0.629.
Under “RBNS enrichment (R)”, `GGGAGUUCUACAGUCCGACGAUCUCAGGUAGUGCACAUAUUGGCAAUAGAGGUCCUGAAUUGUUUUUCUAAGACUGAUCUGAGAGCCAUUGGGCCAUCAAGCCUUUAUAUAUCUGCUUCUAAAAUUGCCCCACUGGAAUUCUCGGGUGCCAA` is recorded as 0.774.
Under “RBNS enrichment (R)”, `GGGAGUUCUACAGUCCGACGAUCCCUUCUGUCUAGGUUCACUUGGUUUGUCAUCAGGAACUGAGCAGGUCCAGGACUCAGCUUUCUGCUUCAGCCUAAGCCAGUACUCCUUGUUUGAGGUAAAAGCCUUAAAAUGGAAUUCUCGGGUGCCAA` is recorded as 0.27.

Block 3 — method: universal PBM; molecule type: double-stranded DNA, one strand shown; sample: in vitro; tested at: not given; direction: higher = stronger binding
Target: Sal-like protein 4, full length isoform B (SALL4, Homo sapiens, UniProt Q9UJQ4-2, residues 1-616)
Notes: 8-mer, flanks averaged, mean of replicates
Target sequence (chain): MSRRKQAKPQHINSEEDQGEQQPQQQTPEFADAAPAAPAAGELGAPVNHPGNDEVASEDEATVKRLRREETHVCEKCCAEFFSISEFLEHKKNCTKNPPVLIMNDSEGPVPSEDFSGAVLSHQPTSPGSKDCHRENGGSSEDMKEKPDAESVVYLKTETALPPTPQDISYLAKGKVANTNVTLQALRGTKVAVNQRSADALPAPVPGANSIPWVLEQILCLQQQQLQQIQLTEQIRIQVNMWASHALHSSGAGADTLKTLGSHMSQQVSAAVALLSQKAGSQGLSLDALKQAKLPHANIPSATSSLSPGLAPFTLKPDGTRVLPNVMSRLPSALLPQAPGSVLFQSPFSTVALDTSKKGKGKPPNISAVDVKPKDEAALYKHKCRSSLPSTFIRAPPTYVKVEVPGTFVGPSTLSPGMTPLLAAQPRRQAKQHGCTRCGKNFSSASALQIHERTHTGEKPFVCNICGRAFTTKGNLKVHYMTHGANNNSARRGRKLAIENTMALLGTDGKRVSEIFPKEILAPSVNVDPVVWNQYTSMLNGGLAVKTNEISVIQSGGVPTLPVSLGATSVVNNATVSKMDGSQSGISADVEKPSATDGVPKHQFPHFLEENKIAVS
`CAAGGCAC` has an E-score of -0.233.
For `ACGGTTAA`, the E-score was 0.143.
The E-score of `CCGTAGGA` is reported as -0.23.
The E-score of `CGTGGCGA` is reported as -0.298.
`CGTTTATC` has an E-score of 0.221.
`CGCACGAC` has an E-score of -0.207.
The E-score of `CCAACGTC` is reported as -0.212.
For `GGCGCCAC`, the E-score was -0.383.
`CTCCAGCA` gave an E-score of -0.0848.
For `GTATTCTA`, the E-score was 0.187.
The E-score of `CCTCAGAG` is reported as -0.355.
The E-score of `AGTTAACC` is reported as -0.0721.

Block 4 — method: DHFR PCA, deep sequencing; sample: yeast; with: (+)-ABA 0 µM; baseline: wild-type fitted maximum; direction: higher = stronger binding
Target: ABI1, truncated, D143A, DHFR fusion (Arabidopsis thaliana)
Notes: methotrexate growth selection, single substitutions
Starting sequence: PYL1, truncated, DHFR fusion (Arabidopsis thaliana); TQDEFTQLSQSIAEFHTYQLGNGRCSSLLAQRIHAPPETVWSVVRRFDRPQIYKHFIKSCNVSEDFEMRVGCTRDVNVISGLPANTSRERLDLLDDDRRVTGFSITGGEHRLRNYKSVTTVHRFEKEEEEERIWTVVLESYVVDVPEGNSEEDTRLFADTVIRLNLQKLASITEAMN; partner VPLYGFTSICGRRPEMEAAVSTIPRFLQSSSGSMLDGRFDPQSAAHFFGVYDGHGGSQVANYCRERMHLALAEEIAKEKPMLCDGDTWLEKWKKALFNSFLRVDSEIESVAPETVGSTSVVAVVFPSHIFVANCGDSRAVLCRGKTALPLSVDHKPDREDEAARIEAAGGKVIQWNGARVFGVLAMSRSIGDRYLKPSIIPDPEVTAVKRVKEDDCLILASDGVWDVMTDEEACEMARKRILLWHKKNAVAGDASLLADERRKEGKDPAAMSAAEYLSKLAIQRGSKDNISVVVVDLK
Under “relative binding score”, `V161S` is recorded as 13%.
For `R88Q`, “relative binding score” read 33.7%.
`S171G` — result for “relative binding score”: 2.56%.
`S150N` — result for “relative binding score”: 18%.
`V145D`: “relative binding score” -2.06%.
`D48P`: “relative binding score” -1.46%.
`S104P` — result for “relative binding score”: 2.31%.
For `T160A`, “relative binding score” read 9.28%.
`R123A` — result for “relative binding score”: 50.3%.
For `E139K`, “relative binding score” read 13.4%.
Under “relative binding score”, `F124Y` is recorded as 19.2%.
Under “relative binding score”, `E151N` is recorded as -5.96%.
For `L156A`, “relative binding score” read 5.63%.
`F103D`: “relative binding score” -1.23%.
`D3T` — result for “relative binding score”: 11.7%.
`N177M`: “relative binding score” 34%.
Under “relative binding score”, `E38W` is recorded as 3.84%.

Block 5 — target: CCNB1, cyclin fold, Cln2 fusion (human); method: yeast growth competition, sequencing; sample: yeast; notes: weak parent motif; baseline: not given; direction: higher = stronger binding
Starting sequence: ORC1 docking peptide (human); PRARKRLELGNLG
Under “normalised enrichment score”, `R4L` is recorded as 1.01.
`P1E`: “normalised enrichment score” 0.435.
For `A3L`, “normalised enrichment score” read 0.115.
Under “normalised enrichment score”, `R4D` is recorded as 0.269.
For `L9T`, “normalised enrichment score” read -0.073.
For `R6S`, “normalised enrichment score” read 0.349.
Under “normalised enrichment score”, `G13I` is recorded as 0.35.
For `R6T`, “normalised enrichment score” read 1.14.
`A3P` — result for “normalised enrichment score”: 0.568.
For `G13L`, “normalised enrichment score” read -0.166.
Under “normalised enrichment score”, `R6E` is recorded as 0.873.
For `R6N`, “normalised enrichment score” read 0.64.
For `K5P`, “normalised enrichment score” read 0.991.

For quick reference, copied from above (block 5):
For `A3L`, “normalised enrichment score” read 0.115.
For `R6N`, “normalised enrichment score” read 0.64.
For `R6T`, “normalised enrichment score” read 1.14.
